Measurements gathered from unrelated publications.
± gives the spread as reported.

SMILES | test system | conditions | tissue uptake
CCCC[C@H](NC(=O)COCCOCCNC(=O)CN1CCN(CC(=O)O)CCN(CC(=O)O)CC1)C(=O)N[C@H]1CC(=O)NCCCC[C@@H](C(N)=O)NC(=O)[C@H](Cc2c[nH]c3ccccc23)NC(=O)[C@H](CCCNC(=N)N)NC(=O)[C@@H](Cc2ccccc2)NC(=O)[C@H](Cc2c[nH]cn2)NC1=O [copper-64 labelled] | C57 mice, stomach | intravenous, 0.37 MBq, 2 h | 0.99 ± 0.17 %ID/g
CC(C)C[C@@H](NC(=O)[C@@H](CCC(=O)O)NC(=O)[C@@H](CC(C)C)NC(=O)[C@@H](CC(C)C)NC(=O)[C@@H](CC(C)C)NC(=O)[C@H](NC(=O)[C@@H](CCC(=O)O)NC(=O)[C@H](NC(=O)[C@H]1CCCN1C(=O)[C@@H](Cc1ccccc1)NC(=O)[C@@H](CC(C)C)NC(=O)[C@@H](Cc1c[nH]c2ccccc12)NC(=O)[C@@H](CCC(=O)O)NC(=O)[C@@H](CC(C)C)NC(=O)[C@@H](Cc1ccc(O)cc1)NC(=O)[C@@H](CCCNC(=N)N)NC(=O)[C@@H](C)NC(=O)[C@@H](Cc1c[nH]c2ccccc12)NC(=O)[C@H]1CCCN1C(=O)[C@@H](CC(N)=O)NC(=O)[C@@H](CCC(N)=O)NC(=O)[C@@H](CCC(=O)O)NC(=O)[C@@H](CCC(=O)O)NC(=O)[C@@H](CS)NC(=O)[C@@H](C)NC(=S)Nc1ccc(CC2CN(CC(=O)O)CCN(CC(=O)O)CCN2CC(=O)O)cc1)[C@H](C)O)[C@H](C)O)C(=O)O (stereo partly shown) [copper-64 labelled] | BALB/c mice, female, 4T1 orthotopic tumour, large intestine | intravenous, 4 h | 7.78 ± 0.61 %ID/g
CCCC[C@H](NC(=O)CNC(=O)CNC(=O)CN1CCN(CC(=O)O)CCN(CC(=O)O)CC1)C(=O)N[C@H]1CC(=O)NCCCC[C@@H](C(N)=O)NC(=O)[C@H](Cc2c[nH]c3ccccc23)NC(=O)[C@H](CCCNC(=N)N)NC(=O)[C@@H](Cc2ccccc2)NC(=O)[C@H](Cc2c[nH]cn2)NC1=O [technetium-99m labelled] | C57 mice, intestines | intravenous, 0.037 MBq, 24 h | 0.4 ± 0.4 %ID
CC(C)C[C@H](NC(=O)CN1CCN(CC(=O)O)CCN(CC(=O)O)CC1)C(=O)N[C@@H](CC(C)C)C(=O)N[C@@H](CC(C)C)C(=O)N[C@@H](CC(C)C)C(=O)N[C@@H](CCCNC(=N)N)C(=O)N[C@H](C(=O)N[C@@H](CCCCN)C(=O)N[C@@H](CCCNC(=N)N)C(N)=O)C(C)C [copper-64 labelled] | male CD1 mice, bone | intravenous, 15 min, together with: 0.1 µmol unlabelled peptide | 1.9 ± 0.2 %ID/g
CC(C)CC(CC(C)C)NC(=O)[C@H](Cc1cnc[nH]1)NC(=O)CNC(=O)[C@@H](NC(=O)[C@H](C)NC(=O)[C@H](Cc1c[nH]c2ccccc12)NC(=O)[C@H](CCC(N)=O)NC(=O)[C@@H](Cc1ccccc1)NC(=O)COCC(=O)Nc1ccc(CNC(=O)CN2CCN(CC(=O)O)CCN(CC(=O)O)CCN(CC(=O)O)CC2)cc1)C(C)C [lutetium-177 labelled] | female NMRI-Foxn1 nu/nu mice, T47D xenograft, tumour | 4 MBq, 24 h, placebo group | 5.9 ± 1.22 %ID/g
N=C(N)NCCC[C@@H]1NC(=O)[C@H](CCCCNC(=O)CNC(=O)CNC(=O)CNC(=O)CC[C@H](NC(=O)CNC(=O)CNC(=O)CNC(=O)CN2CCN(CC(=O)O)CCN(CC(=O)O)CCN(CC(=O)O)CC2)C(=O)NCC(=O)NCC(=O)NCC(=O)NCCCC[C@@H]2NC(=O)[C@@H](Cc3ccccc3)NC(=O)[C@H](CC(=O)O)NC(=O)CNC(=O)[C@H](CCCNC(=N)N)NC2=O)NC(=O)[C@@H](Cc2ccccc2)NC(=O)[C@H](CC(=O)O)NC(=O)CNC1=O [indium-111 labelled] | female athymic nu/nu mice, blood | intravenous, 24 h | 0.03 ± 0.01 %ID/g
CC(C)C[C@@H](NC(=O)[C@@H](CCC(=O)O)NC(=O)[C@@H](CC(C)C)NC(=O)[C@@H](CC(C)C)NC(=O)[C@@H](CC(C)C)NC(=O)[C@H](NC(=O)[C@@H](CCC(=O)O)NC(=O)[C@H](NC(=O)[C@H]1CCCN1C(=O)[C@@H](Cc1ccccc1)NC(=O)[C@@H](CC(C)C)NC(=O)[C@@H](Cc1c[nH]c2ccccc12)NC(=O)[C@@H](CCC(=O)O)NC(=O)[C@@H](CC(C)C)NC(=O)[C@@H](Cc1ccc(O)cc1)NC(=O)[C@@H](CCCNC(=N)N)NC(=O)[C@@H](C)NC(=O)[C@@H](Cc1c[nH]c2ccccc12)NC(=O)[C@H]1CCCN1C(=O)[C@@H](CC(N)=O)NC(=O)[C@@H](CCC(N)=O)NC(=O)[C@@H](CCC(=O)O)NC(=O)[C@@H](CCC(=O)O)NC(=O)[C@@H](CSC1CC(=O)N(CCNC(=O)CN2CCN(CC(=O)O)CCN(CC(=O)O)CC2)C1=O)NC(=O)[C@@H](C)N)[C@H](C)O)[C@H](C)O)C(=O)O (stereo partly shown) [copper-64 labelled] | BALB/c mice, female, 4T1 orthotopic tumour, large intestine | intravenous, 4 h | 8.19 ± 0.85 %ID/g
CN1C(=O)[C@@H](Cc2ccc(O)cc2)NC(=O)CNC(=O)[C@H](Cc2ccc3ccccc3c2)NC(=O)[C@H](CCCNC(=N)N)NC(=O)[C@H]1CCCNC(=O)c1ccc(CNC(=O)CN2CCN(CC(=O)O)CCN(CC(=O)O)CCN(CC(=O)O)CC2)cc1 [gallium-68 labelled] | SCID mice, lymphoma xenograft, kidneys | intravenous, 1 h | 8.8 ± 0.9 %ID/g
CCCC[C@H](NC(=O)CCCCCCCNC(=O)CN1CCN(CC(=O)O)CCN(CC(=O)O)CC1)C(=O)N[C@H]1CC(=O)NCCCC[C@@H](C(N)=O)NC(=O)[C@H](Cc2c[nH]c3ccccc23)NC(=O)[C@H](CCCNC(=N)N)NC(=O)[C@@H](Cc2ccccc2)NC(=O)[C@H](Cc2c[nH]cn2)NC1=O [copper-64 labelled] | C57 mice, brain | intravenous, 0.37 MBq, 0.5 h | 0.2 ± 0.08 %ID/g
N=C(N)NCCC[C@@H]1NC(=O)[C@H](CCCCNC(=O)CNC(=O)CNC(=O)CNC(=O)CC[C@H](NC(=O)CNC(=O)CNC(=O)CNC(=O)CC[C@H](NC(=O)CN2CCN(CC(=O)O)CCN(CC(=O)O)CCN(CC(=O)O)CC2)C(=O)NCC(=O)NCC(=O)NCC(=O)N[C@@H](CCC(=O)NCC(=O)NCC(=O)NCC(=O)NCCCC[C@@H]2NC(=O)[C@@H](Cc3ccccc3)NC(=O)[C@H](CC(=O)O)NC(=O)CNC(=O)[C@H](CCCNC(=N)N)NC2=O)C(=O)NCC(=O)NCC(=O)NCC(=O)NCCCC[C@@H]2NC(=O)[C@@H](Cc3ccccc3)NC(=O)[C@H](CC(=O)O)NC(=O)CNC(=O)[C@H](CCCNC(=N)N)NC2=O)C(=O)NCC(=O)NCC(=O)NCC(=O)NCCCC[C@@H]2NC(=O)[C@@H](Cc3ccccc3)NC(=O)[C@H](CC(=O)O)NC(=O)CNC(=O)[C@H](CCCNC(=N)N)NC2=O)NC(=O)[C@@H](Cc2ccccc2)NC(=O)[C@H](CC(=O)O)NC(=O)CNC1=O [indium-111 labelled] | female athymic nu/nu mice, intestine | intravenous, 4 h | 8.79 ± 2.98 %ID/g
Cc1cc(O)cc(C)c1C[C@H](NC(=O)[C@@H]1CCCN1C(=O)[C@H](CCCNC(=N)N)NC(=O)[C@H](CCCNC(=N)N)N(C)C(=O)[C@@H]1CCCN1C(=O)[C@H](CCCCN)NC(=O)CCNC(=O)CN1CCN(CC(=O)O)CCN(CC(=O)O)CCN(CC(=O)O)CC1)C(=O)N[C@H](C(=O)N[C@@H](CC(C)C)C(=O)O)C(C)(C)C [lutetium-177 labelled] | CF-1 mice, small intestine | dose not given, 1 h | 3.31 ± 0.41 %ID/g
N=C(N)NCCC[C@@H]1NC(=O)[C@H](CCCCNC(=O)CC[C@H](NC(=O)CC[C@H](NC(=O)CN2CCN(CC(=O)O)CCN(CC(=O)O)CCN(CC(=O)O)CC2)C(=O)N[C@@H](CCC(=O)NCCCC[C@@H]2NC(=O)[C@@H](Cc3ccccc3)NC(=O)[C@H](CC(=O)O)NC(=O)CNC(=O)[C@H](CCCNC(=N)N)NC2=O)C(=O)NCCCC[C@@H]2NC(=O)[C@@H](Cc3ccccc3)NC(=O)[C@H](CC(=O)O)NC(=O)CNC(=O)[C@H](CCCNC(=N)N)NC2=O)C(=O)NCCCC[C@@H]2NC(=O)[C@@H](Cc3ccccc3)NC(=O)[C@H](CC(=O)O)NC(=O)CNC(=O)[C@H](CCCNC(=N)N)NC2=O)NC(=O)[C@@H](Cc2ccccc2)NC(=O)[C@H](CC(=O)O)NC(=O)CNC1=O [indium-111 labelled] | female athymic nu/nu mice, blood | intravenous, 72 h | 0.07 ± 0.02 %ID/g
CSCC[C@H](NC(=O)[C@H](CC(C)C)NC(=O)[C@H](Cc1c[nH]cn1)NC(=O)CNC(=O)[C@@H](NC(=O)[C@H](C)NC(=O)[C@H](Cc1c[nH]c2ccccc12)NC(=O)[C@H](CCC(N)=O)NC(=O)CCOCCOCCOCCOCCNC(=O)CN1CCN(CC(=O)O)CCN(CC(=O)O)CCN(CC(=O)O)CC1)C(C)C)C(N)=O [indium-111 labelled] | male Swiss nu/nu mice, PC-3 tumour, kidney | intravenous, 10 pmol, 4 h | 1.5 ± 0.4 %ID/g

Excerpt of the above:
SMILES | test system | conditions | tissue uptake
CCCC[C@H](NC(=O)CCCCCCCNC(=O)CN1CCN(CC(=O)O)CCN(CC(=O)O)CC1)C(=O)N[C@H]1CC(=O)NCCCC[C@@H](C(N)=O)NC(=O)[C@H](Cc2c[nH]c3ccccc23)NC(=O)[C@H](CCCNC(=N)N)NC(=O)[C@@H](Cc2ccccc2)NC(=O)[C@H](Cc2c[nH]cn2)NC1=O [copper-64 labelled] | C57 mice, brain | intravenous, 0.37 MBq, 0.5 h | 0.2 ± 0.08 %ID/g
